Assay results from different studies.
Compare with care: the assays were run in different laboratories. ± gives the spread as reported.
BCHE: Cholinesterase (BCHE, Homo sapiens, UniProt P06276)
Sequence of UniProt P06276 (whole entry, looked up): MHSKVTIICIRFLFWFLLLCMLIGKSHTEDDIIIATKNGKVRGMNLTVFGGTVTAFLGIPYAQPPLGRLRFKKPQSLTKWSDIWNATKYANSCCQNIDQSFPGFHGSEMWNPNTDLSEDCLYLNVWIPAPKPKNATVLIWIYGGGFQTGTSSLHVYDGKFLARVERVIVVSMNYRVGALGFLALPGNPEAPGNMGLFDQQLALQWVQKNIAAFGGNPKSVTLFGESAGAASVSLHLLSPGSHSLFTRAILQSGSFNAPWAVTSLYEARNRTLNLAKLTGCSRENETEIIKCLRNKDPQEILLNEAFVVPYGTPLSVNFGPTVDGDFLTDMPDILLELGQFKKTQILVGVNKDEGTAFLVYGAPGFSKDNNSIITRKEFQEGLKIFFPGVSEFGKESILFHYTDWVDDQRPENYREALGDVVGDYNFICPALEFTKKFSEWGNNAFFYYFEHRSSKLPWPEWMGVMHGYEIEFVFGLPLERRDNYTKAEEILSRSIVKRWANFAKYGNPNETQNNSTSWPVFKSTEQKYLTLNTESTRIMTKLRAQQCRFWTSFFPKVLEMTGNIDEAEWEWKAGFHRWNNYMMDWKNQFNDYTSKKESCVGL
Sequence of UniProt P22309 (whole entry, looked up): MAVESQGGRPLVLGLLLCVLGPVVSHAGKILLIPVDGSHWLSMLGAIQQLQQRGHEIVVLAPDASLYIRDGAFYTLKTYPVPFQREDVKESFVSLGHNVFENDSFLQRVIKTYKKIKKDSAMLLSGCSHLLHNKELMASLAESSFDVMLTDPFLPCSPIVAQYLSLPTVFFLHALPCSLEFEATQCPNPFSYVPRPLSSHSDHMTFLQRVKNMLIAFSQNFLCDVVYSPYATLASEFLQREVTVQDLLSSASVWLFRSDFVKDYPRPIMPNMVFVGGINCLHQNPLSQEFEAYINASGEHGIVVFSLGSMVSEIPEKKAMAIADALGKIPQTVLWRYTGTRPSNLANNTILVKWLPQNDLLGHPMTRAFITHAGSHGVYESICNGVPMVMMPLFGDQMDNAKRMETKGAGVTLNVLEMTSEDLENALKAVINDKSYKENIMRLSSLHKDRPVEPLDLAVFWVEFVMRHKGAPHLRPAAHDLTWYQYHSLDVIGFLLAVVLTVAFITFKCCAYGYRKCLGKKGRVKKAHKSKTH
Sequence of UniProt P37136 (whole entry, looked up): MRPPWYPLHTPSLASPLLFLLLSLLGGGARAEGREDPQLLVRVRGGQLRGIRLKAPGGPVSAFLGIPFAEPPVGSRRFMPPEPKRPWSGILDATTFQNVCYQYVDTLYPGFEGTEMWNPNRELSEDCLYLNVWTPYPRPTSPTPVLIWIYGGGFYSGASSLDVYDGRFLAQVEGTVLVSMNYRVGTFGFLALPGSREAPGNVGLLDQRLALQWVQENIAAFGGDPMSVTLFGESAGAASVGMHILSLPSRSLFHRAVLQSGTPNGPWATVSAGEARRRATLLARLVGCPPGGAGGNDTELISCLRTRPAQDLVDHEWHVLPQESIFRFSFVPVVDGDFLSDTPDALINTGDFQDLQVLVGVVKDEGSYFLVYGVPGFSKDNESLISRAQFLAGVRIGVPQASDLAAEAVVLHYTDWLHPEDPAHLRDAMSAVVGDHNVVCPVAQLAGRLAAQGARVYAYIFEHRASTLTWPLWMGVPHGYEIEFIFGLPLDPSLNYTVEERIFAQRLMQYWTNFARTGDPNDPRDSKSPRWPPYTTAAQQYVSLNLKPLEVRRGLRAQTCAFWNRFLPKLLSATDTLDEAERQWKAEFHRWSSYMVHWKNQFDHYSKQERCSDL
Sequence of UniProt P30542 (whole entry, looked up): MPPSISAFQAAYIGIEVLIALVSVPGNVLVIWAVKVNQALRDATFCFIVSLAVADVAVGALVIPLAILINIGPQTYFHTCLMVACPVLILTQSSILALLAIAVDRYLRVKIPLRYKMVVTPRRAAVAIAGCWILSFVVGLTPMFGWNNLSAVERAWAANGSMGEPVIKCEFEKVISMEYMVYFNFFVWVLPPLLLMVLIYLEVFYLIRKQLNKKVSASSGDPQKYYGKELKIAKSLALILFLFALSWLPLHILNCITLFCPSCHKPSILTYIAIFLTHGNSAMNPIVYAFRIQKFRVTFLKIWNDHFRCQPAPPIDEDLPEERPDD
Sequence of UniProt P10635 (whole entry, looked up): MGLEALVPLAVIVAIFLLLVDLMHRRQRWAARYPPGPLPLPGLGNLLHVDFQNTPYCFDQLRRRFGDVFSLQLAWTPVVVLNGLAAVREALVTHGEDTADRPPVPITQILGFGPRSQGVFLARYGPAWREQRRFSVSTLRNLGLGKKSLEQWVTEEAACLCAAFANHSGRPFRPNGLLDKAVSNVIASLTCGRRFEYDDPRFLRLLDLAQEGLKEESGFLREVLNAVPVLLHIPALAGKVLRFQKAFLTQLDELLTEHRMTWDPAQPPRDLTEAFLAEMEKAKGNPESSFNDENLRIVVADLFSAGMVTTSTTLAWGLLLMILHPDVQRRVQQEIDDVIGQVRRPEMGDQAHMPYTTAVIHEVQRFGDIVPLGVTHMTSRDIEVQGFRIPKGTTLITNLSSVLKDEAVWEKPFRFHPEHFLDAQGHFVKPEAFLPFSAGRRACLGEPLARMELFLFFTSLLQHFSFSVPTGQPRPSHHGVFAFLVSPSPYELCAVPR
Sequence of UniProt P42574 (whole entry, looked up): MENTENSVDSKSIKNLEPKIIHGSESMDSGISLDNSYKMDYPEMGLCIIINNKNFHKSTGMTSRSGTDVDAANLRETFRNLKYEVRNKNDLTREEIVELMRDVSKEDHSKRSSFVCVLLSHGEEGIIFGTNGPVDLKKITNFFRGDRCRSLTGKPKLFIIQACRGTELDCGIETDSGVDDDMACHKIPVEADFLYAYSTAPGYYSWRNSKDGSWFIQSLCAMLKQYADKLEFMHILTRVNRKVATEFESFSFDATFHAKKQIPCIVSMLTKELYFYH
Sequence of UniProt P55210 (whole entry, looked up): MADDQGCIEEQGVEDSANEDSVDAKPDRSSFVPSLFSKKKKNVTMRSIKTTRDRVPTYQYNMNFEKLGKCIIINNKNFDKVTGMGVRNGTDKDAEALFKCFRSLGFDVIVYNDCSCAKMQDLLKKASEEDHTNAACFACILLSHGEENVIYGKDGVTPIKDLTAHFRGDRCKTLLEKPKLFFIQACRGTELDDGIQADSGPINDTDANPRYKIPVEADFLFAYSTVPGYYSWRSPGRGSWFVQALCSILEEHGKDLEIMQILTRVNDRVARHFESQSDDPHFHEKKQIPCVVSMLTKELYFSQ
Sequence of UniProt P50052 (whole entry, looked up): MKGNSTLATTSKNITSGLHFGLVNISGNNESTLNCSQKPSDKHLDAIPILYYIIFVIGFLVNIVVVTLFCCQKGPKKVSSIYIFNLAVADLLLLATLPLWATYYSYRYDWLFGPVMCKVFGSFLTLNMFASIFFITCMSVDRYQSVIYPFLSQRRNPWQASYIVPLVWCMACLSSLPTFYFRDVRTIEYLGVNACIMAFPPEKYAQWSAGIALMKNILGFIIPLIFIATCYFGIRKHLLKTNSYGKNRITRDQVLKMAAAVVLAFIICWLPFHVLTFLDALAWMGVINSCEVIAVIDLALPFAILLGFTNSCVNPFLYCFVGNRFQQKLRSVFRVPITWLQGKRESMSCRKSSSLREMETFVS
Sequence of UniProt Q9BXR0 (whole entry, looked up): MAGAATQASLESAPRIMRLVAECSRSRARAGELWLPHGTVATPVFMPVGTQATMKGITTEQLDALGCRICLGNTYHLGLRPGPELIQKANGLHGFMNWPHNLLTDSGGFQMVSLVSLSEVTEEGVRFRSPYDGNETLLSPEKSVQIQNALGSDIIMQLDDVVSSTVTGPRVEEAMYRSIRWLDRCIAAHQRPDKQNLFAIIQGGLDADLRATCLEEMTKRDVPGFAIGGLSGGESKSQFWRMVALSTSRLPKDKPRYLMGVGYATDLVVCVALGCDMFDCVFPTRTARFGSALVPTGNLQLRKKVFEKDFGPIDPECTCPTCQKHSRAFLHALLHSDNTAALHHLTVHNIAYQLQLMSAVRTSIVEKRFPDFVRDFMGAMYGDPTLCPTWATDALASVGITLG
Sequence of UniProt O55242 (whole entry, looked up): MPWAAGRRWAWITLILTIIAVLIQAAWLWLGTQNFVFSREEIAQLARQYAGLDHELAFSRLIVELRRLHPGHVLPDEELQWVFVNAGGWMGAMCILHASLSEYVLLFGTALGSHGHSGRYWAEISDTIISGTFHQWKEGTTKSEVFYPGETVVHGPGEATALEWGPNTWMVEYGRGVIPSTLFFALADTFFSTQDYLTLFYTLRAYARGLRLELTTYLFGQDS
Sequence of UniProt P41143 (whole entry, looked up): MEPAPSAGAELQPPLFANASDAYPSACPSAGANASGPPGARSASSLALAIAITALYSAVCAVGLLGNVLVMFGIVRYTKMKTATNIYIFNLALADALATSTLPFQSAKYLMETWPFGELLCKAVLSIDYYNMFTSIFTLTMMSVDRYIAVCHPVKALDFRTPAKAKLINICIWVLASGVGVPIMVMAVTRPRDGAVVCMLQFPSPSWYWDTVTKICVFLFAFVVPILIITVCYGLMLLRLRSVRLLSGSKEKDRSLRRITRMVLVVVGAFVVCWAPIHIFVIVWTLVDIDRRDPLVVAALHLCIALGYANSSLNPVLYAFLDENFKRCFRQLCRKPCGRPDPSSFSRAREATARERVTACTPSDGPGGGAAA

For `human angiotensin II`, the inhibition was 100% (AGTR2 (Homo sapiens, UniProt P50052); radioligand binding; concentration not given).
With `buprenorphine hydrochloride` the IC50 was > 1000 µM (UGT1A1 (Homo sapiens, UniProt P22309); 4-MU glucuronidation, inhibitor; with: 4-MU 100 µM).
The Ki of `cocaine hydrochloride` is reported as 1.35 ± 0.221 µM (Sigmar1 (Mus musculus, UniProt O55242); binding, radioligand displacement; mouse brain membranes; 180 min, 37 °C, with: [3H](+)-pentazocine 3.0 nM).
`evodiamine` has an IC50 of 20.1 ± 1.36 µM (BCHE; enzyme activity, inhibitor; with Triton).
For `SNC80`, the EC50 was 0.0586 µM (Delta-type opioid receptor, with β-arrestin1 (OPRD1, Homo sapiens, UniProt P41143); β-arrestin1 recruitment, agonist).
`acetyl pepstatin` has a Kd of 6.1 µM (Gag-Pol polyprotein, protease (Human immunodeficiency virus type 1 group M subtype B, UniProt P03367); binding, differential scanning calorimetry; at melting temperature).
For `benzalkonium bromide`, the IC50 was 9.25 ± 6.32 µM (BCHE; enzyme activity, inhibitor, fluorescence).
`phoxim-oxon` has an IC50 of 0.052 µM (Ache (Rattus norvegicus, UniProt P37136); inhibitor; rat, postnatal day 12, rat brain homogenate; 15 min, 37 °C).
With `Ac-DEVD-CHO` the IC50 was 0.00342 µM (Caspase-7 (CASP7, Homo sapiens, UniProt P55210); enzyme activity).
For `biopterin`, the Ki was 8.72 ± 0.62 µM (QTRT1 (Homo sapiens, UniProt Q9BXR0); queuine exchange, inhibitor, Dixon plot; pH 7.3, 37 °C, with: queuine, 10 µM tRNA).
The IC50 of `Ac-DEVD-CHO` is reported as 0.00273 µM (Caspase-3 (CASP3, Homo sapiens, UniProt P42574); inhibitor).
With `R(-)-PIA` the IC50 was 0.36 µM (ADORA1 (Homo sapiens, UniProt P30542); radioligand binding).
`mitragynine` gave a Ki of 1.1 µM (Cytochrome P450 2D6 (CYP2D6, Homo sapiens, UniProt P10635); enzyme activity, inhibitor; human liver microsomes; with: dextromethorphan substrate).
`forsythoside B` has an IC50 of 225 ± 19.7 µM (LDHA (Homo sapiens, UniProt P00338); enzyme activity, inhibitor).
For `deucravacitinib`, “subjects with influenza-like illness” read 0% (multiple ascending dose; healthy human; oral, 12 mg once daily).

For quick reference, copied from above:
With `R(-)-PIA` the IC50 was 0.36 µM (ADORA1 (Homo sapiens, UniProt P30542); radioligand binding).
